Published values pooled from the literature.
Target: 5-hydroxytryptamine receptor 2A (HTR2A, Homo sapiens, UniProt P28223)
UniProt P28223, sequence (whole entry, looked up): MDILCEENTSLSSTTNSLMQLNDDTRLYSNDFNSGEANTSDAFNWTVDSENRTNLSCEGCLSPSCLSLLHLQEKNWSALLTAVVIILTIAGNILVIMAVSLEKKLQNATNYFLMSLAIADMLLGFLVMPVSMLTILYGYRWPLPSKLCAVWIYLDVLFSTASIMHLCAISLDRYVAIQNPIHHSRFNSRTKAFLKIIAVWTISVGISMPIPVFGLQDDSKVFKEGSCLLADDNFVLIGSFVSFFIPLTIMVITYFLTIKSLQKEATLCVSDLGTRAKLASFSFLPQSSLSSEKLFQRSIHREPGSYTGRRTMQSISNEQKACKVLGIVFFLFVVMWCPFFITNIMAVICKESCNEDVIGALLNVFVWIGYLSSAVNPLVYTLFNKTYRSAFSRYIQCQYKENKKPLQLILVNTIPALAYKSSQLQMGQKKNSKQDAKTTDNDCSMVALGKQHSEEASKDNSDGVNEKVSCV

C/C(=N\OCCCN1CCCCC1)c1ccc(C(F)(F)F)cc1 — IC50 (inositol phosphate, antagonist): 1620 nM
O=C(O)CCn1c(=O)oc2cc(Cl)c(Cl)cc21 — EC50 (agonist): > 25100 nM
CCN(CC)C(=O)[C@@H]1C=C2c3cccc4c3c(cn4C(=O)c3ccco3)C[C@H]2N(C)C1 — Ki (ligand displacement, radioligand): 225 nM
O=C1c2ccccc2CCCN1CCCCN1CCN(c2cccc(Cl)c2Cl)CC1 — Ki (ligand displacement, radioligand): 24 nM
COc1cc2c(cc1O)C(CCc1ccc(Cl)cc1)N(C)CC2 (centres unmarked) — Ki (cell-free assay, radioligand): 880 nM
C[C@@H](Cc1ccsc1)NC(=O)NC[C@H](Cc1ccc(O)cc1)N(C)C — Ki (cell-free assay): 580 nM
O[C@H]1[C@H](n2cnc3c(N[C@@H](C4CCC4)C4CC4)nc(I)nc32)[C@H]2C[C@@]2(C(F)F)[C@H]1O — Kb (calcium signal, antagonist): > 10000 nM
COc1c(O)cc2c3c1-c1ccccc1CC3N(C)CC2 (centres unmarked) — Ki (ligand displacement, radioligand; cell membranes): 60 nM

Excerpt of the above:
O[C@H]1[C@H](n2cnc3c(N[C@@H](C4CCC4)C4CC4)nc(I)nc32)[C@H]2C[C@@]2(C(F)F)[C@H]1O — Kb (calcium signal, antagonist): > 10000 nM
